Results pooled from the literature.
Each numbered part is a random draw from the data of one study; scales do not carry over between parts.

Series 1 — technique: protein binding microarray; molecule type: double-stranded DNA, one strand shown; matrix: in vitro; concentration: not given; reference: not given; reading: higher = stronger binding
Target: Histone acetyltransferase KAT6A, winged helix 1, GST fusion (KAT6A, Homo sapiens, UniProt Q92794, residues 1-85)
Notes: 8-mer, flanks averaged, mean of 2 arrays, mostly near background
Residues (chain): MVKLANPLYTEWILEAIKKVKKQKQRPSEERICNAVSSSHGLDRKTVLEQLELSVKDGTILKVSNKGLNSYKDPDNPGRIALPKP
With `CTATACCC` the E-score was 0.0773.
The E-score of `GCTTTCTA` is reported as -0.0927.
`ATGCCAGC` gave an E-score of -0.0154.
`CACAACTG` gave an E-score of -0.204.

Series 2 — technique: RNA Bind-n-Seq; molecule type: RNA; matrix: in vitro; concentration: 200 nM; notes: whole 134-nt RNA, ends assumed; added: 150 mM LiCl; reference: input library; reading: higher = stronger binding; all molecules: 7-deaza-guanosine replaces G
Target: Ras GTPase-activating protein-binding protein 1, full length (G3BP1, Homo sapiens, UniProt Q13283)
Chain of UniProt Q13283 (whole entry, looked up): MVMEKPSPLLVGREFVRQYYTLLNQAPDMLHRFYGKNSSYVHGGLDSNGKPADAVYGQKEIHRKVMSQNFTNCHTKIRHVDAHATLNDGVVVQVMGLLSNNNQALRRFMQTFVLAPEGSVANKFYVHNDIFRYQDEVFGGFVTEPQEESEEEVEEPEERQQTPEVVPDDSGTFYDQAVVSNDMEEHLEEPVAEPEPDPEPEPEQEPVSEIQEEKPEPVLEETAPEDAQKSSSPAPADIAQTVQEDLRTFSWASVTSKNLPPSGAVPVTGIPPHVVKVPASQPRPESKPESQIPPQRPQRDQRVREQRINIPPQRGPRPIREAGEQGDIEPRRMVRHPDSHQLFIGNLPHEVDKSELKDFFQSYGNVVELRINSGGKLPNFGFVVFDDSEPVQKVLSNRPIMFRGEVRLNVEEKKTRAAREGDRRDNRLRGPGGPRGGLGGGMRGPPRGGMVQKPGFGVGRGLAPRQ
For `GGGAGUUCUACAGUCCGACGAUCUCAAGUCCUGUGCUACACAUCGUAUGUACCGAAUCGGAGGUUUUUGGAAAAAGGAAAGUAUUAUGUUACGCCGUUCGGAUCUGCACUUCCUGGAAUUCUCGGGUGUCAAGG`, the log2 enrichment was -1.28.
`GGGAGUUCUACAGUCCGACGAUCCCUCAAGUCCUGUGCUACACAUCGUAUGUACCGAAUCGUGUGUGUGUGUGUGUAAAGUAUUAUGUUACGCCGUUCGGAUCUGCACUUCCAUGGAAUUCUCGGGUGUCAAGG` gave a log2 enrichment of -0.332.
The log2 enrichment of `GGGAGUUCUACAGUCCGACGAUCCCUCAAGUCCUGUGCUACACAUCGUAUGUACCGAAUCGGUUUGGUUUGGUGGAAAGUAUUAUGUUACGCCGUUCGGAUCUGCACUUCCAGUGGAAUUCUCGGGUGUCAAGG` is reported as -0.488.

Series 3 — technique: protein-binding microarray; molecule type: double-stranded DNA, one strand shown; matrix: in vitro; concentration: 2200 nM top; notes: 60-bp whole probe; added: salmon DNA 0.4 mg/ml; reference: random background probes; reading: higher = stronger binding
Target: Interferon regulatory factor 7, full length, phosphomimetic (IRF7, Homo sapiens, UniProt Q92985, residues 1-503, S471D/S472D/S475D/S476D/S477D/S483D/S484D/S487D)
Chain of UniProt Q92985 (whole entry, unmodified, looked up): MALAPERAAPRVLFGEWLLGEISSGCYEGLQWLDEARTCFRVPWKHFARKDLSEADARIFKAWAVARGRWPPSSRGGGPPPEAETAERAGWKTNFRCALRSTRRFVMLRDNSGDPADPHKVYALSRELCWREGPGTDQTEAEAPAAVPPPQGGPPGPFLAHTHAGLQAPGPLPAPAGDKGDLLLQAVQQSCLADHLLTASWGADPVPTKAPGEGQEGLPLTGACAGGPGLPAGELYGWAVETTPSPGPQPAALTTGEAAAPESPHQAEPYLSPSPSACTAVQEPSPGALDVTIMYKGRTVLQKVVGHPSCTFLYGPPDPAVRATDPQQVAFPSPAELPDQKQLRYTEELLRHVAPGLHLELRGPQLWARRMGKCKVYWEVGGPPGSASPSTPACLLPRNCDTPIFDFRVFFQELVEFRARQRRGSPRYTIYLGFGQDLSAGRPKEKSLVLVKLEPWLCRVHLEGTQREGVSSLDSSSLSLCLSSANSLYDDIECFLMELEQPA
`GCCTAGCACGACGGTTTCCTTTCCGTGACGTGCTAGGTCTTGATTCGCTTGACGCTGCTG`: “fitted relative affinity” 3.99 z-score.
For `GCCTAGCACGACGGTCTCCTACTGCTGAAGTGCTAGGTCTTGATTCGCTTGACGCTGCTG`, “fitted relative affinity” read 0.585 z-score.
Under “fitted relative affinity”, `GCCTAGCACATAGATTTCAGTTTCGATTAGTGCTAGGTCTTGATTCGCTTGACGCTGCTG` is recorded as 8.17 z-score.

Mixed results
For `PhoQ, residues 284 288 289 292 302 303 ASVMEA`, the fold induction was 5.63 (PhoP, residues 12 14 15 18 19 LHSVQ (Escherichia coli, UniProt P23836); Sort-seq, item: YFP reporter; E. coli; PhoQ-PhoP variant library, added: 10 µM Mg2+; reference: high Mg2+ state, higher = stronger signaling).

Repeated from above (series 2):
`GGGAGUUCUACAGUCCGACGAUCCCUCAAGUCCUGUGCUACACAUCGUAUGUACCGAAUCGUGUGUGUGUGUGUGUAAAGUAUUAUGUUACGCCGUUCGGAUCUGCACUUCCAUGGAAUUCUCGGGUGUCAAGG` gave a log2 enrichment of -0.332.
The log2 enrichment of `GGGAGUUCUACAGUCCGACGAUCCCUCAAGUCCUGUGCUACACAUCGUAUGUACCGAAUCGGUUUGGUUUGGUGGAAAGUAUUAUGUUACGCCGUUCGGAUCUGCACUUCCAGUGGAAUUCUCGGGUGUCAAGG` is reported as -0.488.
